Measurements pooled from the literature.
Compare with care: the assays were run in different laboratories. ± marks the error that the study gave. In brackets after ≈: the same amount, converted by molar mass.

Compound | target or system | assay | test system | setting | scale | measurement | value
CCCCC1(CCCC)CN(c2ccccc2)c2cc(SC)c(OCC(=O)N[C@@H](C(=O)NCC(=O)O)c3ccccc3)cc2S(=O)(=O)C1 |  | item: HDL cholesterol | human, serum | 20 mg once daily, day 7 |  | serum HDL-C | 51.2 mg/dL
O=C(NNc1ccc(F)c(F)c1)c1nnc(C23CC4CC(CC(C4)C2)C3)o1 | Fusarium graminearum | fungal growth, inhibitor |  |  |  | EC50 | 0.8 ± 0.17 µg/mL (≈ 2.14 µM)
COc1c(CCC[P+](c2ccccc2)(c2ccccc2)c2ccccc2)cc2c(c1OC)OCO2.[I-] | OVCAR-3 | SRB |  |  |  | LC50 | > -4 log M
Nc1ncnc2c1ncn2[C@@H]1O[C@@H]2COP(=O)(O)O[C@H]3[C@@H](O)[C@H](n4cnc5c(=O)[nH]cnc54)O[C@@H]3COP(=O)(O)O[C@H]2[C@H]1O | West Nile virus | RNA sequencing Reactome analysis, item: DNA Repair (R-HSA-73894) | HFF-1 | concentration not given, upregulated pathways, with: West Nile virus infection | reference: WNV-infected without compound | fold enrichment | 2.67
COc1cc(CCC[P+](c2ccccc2)(c2ccccc2)c2ccccc2)c(OC)c2c1OCO2.[I-] | OVCAR-3 | SRB |  |  |  | GI50 | -6.2 log M
CN1CCN(S(=O)(=O)c2cc([N+](=O)[O-])ccc2N(CCOS(C)(=O)=O)CCOS(C)(=O)=O)CC1 |  |  | NSG mice, sample BF PDX | intraperitoneal, 25 mg/kg weekly x3 | reference: vehicle | EFS delay (T-C) | 0.2 days
C[C@H](C(=O)N[C@H]1COc2ccccc2[C@@H]1S(C)(=O)=O)c1ccc(F)cc1 | SKCa potassium channel, rat | binding |  | 10 µM, Eurofins selectivity panel |  | inhibition | 3%
CC[C@H](C)[C@H](NC(=O)[C@H](C)NC(=O)[C@H](CCCCN)NC(=O)[C@H](CC(C)C)NC(=O)[C@H](C)NC(=O)[C@@H](NC(=O)[C@H](Cc1c[nH]cn1)NC(=O)[C@H](CC(C)C)NC(=O)[C@@H](NC(=O)[C@@H](NC(=O)[C@H](CCCCN)NC(=O)[C@H](C)NC(=O)[C@H](C)NC(=O)[C@H](CO)NC(=O)[C@H](CCCCN)NC(=O)[C@H](Cc1ccccc1)NC(=O)[C@@H](NC(=O)[C@H](CCCCN)NC(=O)[C@H](CC(C)C)NC(=O)[C@H](Cc1ccccc1)NC(=O)[C@H](CO)NC(=O)[C@H](CCCCN)NC(=O)[C@H](Cc1c[nH]c2ccccc12)NC(=O)[C@H](CCCCN)NC(C)=O)[C@@H](C)O)[C@@H](C)O)C(C)C)[C@@H](C)O)C(=O)N[C@@H](CO)C(=O)N[C@@H](CO)C(N)=O | Pseudomonas aeruginosa |  | ATCC 27853 |  |  | MBC range | 8 µg/mL (≈ 2.73 µM)
CS(=O)(=O)CCCn1c(Cn2c(=O)n(CC(F)(F)F)c3ccncc32)cc2cc(Cl)ccc21 | respiratory syncytial virus | RT-qPCR | hospitalized infants 1-24 months, nasal swab | oral, 2, 1.5 or 1 mg/kg daily, day 5, low dose by age cohort | reference: baseline | LS mean viral load change | -4.27 log10 copies/mL
CC[C@H](C)[C@@H]1NC(=O)[C@@H]2CCCN2C(=O)[C@H](CC(C)C)NC(=O)[C@H](CC(C)C)NC(=O)CNC(=O)[C@@H](NC(=O)[C@@H](NC(=O)[C@H](CC(=O)O)NC(=O)CNC(=O)[C@@H](NC(=O)[C@H](C)NC(=O)CNC(=O)[C@H](CCCCN)NC(=O)[C@H](CC(C)C)NC(=O)[C@H](CC(C)C)NC(=O)[C@H](CCCCN)NC(=O)CNC(=O)[C@@H](NC(=O)[C@@H](N)CC(C)C)C(C)C)C(C)C)C(C)C)CSSC[C@@H](C(=O)O)NC1=O |  | RNA-seq, item: Alox5ap mRNA | mouse traumatic brain injury, frontal cortex and hippocampus | dose not given | reference: TBI plus compound vs TBI | log2 fold change | -3.11

A few entries again:
Compound | target or system | assay | test system | setting | scale | measurement | value
CS(=O)(=O)CCCn1c(Cn2c(=O)n(CC(F)(F)F)c3ccncc32)cc2cc(Cl)ccc21 | respiratory syncytial virus | RT-qPCR | hospitalized infants 1-24 months, nasal swab | oral, 2, 1.5 or 1 mg/kg daily, day 5, low dose by age cohort | reference: baseline | LS mean viral load change | -4.27 log10 copies/mL
